Measurements gathered from unrelated publications.
Each line is one published result; not all experiments were run side by side. ± marks the error that the study gave.
NR1I2: Nuclear receptor subfamily 1 group I member 2 (NR1I2, Homo sapiens, UniProt O75469)
Chain of UniProt O75469 (whole entry, looked up): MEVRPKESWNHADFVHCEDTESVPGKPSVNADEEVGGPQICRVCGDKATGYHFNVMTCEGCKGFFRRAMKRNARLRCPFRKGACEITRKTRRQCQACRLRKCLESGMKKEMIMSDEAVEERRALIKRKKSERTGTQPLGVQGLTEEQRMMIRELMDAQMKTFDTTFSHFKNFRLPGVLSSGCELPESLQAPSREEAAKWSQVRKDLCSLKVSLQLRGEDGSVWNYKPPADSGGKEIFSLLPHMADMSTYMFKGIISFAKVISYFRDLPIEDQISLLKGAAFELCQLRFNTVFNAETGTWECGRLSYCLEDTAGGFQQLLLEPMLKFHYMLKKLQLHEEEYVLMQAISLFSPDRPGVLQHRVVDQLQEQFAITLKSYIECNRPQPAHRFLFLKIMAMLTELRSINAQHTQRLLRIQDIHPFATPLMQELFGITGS
Chain of UniProt Q9UNQ0 (whole entry, looked up): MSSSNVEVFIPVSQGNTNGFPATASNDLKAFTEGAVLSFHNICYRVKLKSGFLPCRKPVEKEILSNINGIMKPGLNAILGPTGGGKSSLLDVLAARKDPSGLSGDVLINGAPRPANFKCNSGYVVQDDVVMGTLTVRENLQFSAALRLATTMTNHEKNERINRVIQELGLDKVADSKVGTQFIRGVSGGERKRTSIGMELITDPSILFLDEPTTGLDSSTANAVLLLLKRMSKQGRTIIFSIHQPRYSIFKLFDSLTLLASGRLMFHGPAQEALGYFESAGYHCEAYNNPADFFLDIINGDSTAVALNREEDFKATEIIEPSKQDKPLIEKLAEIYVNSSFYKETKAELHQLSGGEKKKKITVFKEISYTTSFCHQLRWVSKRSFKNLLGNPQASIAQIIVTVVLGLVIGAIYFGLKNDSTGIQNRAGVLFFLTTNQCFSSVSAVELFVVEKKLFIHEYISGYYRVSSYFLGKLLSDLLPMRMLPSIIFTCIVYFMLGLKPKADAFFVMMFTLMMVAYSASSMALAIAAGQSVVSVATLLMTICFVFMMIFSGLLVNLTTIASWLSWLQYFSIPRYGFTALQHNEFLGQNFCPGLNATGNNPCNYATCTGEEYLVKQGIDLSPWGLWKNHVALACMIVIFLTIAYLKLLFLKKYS
Chain of UniProt P11712 (whole entry, looked up): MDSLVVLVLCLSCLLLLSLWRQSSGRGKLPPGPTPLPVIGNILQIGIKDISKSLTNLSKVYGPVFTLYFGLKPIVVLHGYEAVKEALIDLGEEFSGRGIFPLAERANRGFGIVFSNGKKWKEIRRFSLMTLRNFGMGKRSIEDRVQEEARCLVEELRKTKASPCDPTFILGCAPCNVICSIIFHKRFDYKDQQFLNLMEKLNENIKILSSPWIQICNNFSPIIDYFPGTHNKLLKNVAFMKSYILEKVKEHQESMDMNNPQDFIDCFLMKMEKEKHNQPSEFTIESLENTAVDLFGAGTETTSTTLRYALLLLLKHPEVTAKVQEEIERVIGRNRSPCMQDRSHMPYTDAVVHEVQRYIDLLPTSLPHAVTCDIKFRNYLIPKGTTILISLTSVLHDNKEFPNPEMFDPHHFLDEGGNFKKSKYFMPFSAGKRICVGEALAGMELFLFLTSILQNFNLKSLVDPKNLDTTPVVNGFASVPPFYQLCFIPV
Chain of UniProt P08684 (whole entry, looked up): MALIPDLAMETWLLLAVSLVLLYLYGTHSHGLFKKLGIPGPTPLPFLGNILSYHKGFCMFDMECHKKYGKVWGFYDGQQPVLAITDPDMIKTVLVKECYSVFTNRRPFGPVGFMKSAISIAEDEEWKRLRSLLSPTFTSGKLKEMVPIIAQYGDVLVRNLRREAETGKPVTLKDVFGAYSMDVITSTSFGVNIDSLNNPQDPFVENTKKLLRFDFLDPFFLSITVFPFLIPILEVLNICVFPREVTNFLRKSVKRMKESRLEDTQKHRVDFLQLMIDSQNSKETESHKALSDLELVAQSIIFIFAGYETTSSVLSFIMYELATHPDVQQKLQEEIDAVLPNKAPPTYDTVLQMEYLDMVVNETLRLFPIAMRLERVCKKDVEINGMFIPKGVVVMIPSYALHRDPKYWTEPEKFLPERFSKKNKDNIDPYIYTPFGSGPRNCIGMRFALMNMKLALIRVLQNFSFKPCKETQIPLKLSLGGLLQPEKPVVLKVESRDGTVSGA
Chain of UniProt Q9NPD5 (whole entry, looked up): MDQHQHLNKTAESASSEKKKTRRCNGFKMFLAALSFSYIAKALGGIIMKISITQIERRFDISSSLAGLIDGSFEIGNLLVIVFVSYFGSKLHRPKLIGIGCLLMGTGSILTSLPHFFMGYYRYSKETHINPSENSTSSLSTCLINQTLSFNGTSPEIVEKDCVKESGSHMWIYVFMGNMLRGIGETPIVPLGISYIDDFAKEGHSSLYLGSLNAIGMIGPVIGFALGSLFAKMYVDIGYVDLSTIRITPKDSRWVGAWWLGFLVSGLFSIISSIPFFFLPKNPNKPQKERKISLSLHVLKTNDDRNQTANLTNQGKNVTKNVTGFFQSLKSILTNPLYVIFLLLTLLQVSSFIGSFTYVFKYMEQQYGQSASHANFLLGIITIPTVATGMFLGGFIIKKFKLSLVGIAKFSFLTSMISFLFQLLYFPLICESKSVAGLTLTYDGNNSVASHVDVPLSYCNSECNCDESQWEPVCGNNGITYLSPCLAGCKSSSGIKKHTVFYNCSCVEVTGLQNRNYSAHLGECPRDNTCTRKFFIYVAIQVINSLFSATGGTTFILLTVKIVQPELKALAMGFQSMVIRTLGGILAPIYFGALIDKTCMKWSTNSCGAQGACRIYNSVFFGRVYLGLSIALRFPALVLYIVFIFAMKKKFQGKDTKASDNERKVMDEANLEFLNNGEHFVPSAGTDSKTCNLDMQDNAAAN

| Compound | target or system | test | test system | conditions | how to read | quantity | result |
| --- | --- | --- | --- | --- | --- | --- | --- |
| CN[C@@](C)(C[18F])C(=O)O | DU-145 tumour model |  | host not given, kidney | 15 min, tumour-bearing |  | tracer uptake | 25 %ID/g |
| Clc1ccc(-c2ccc(Cl)cc2Cl)cc1 | NR1I2 | reporter gene, agonist, luciferase | COS-7 | 24 h | baseline: DMSO | fold induction | 1.9 ± 0.2 fold |
| CN/C(=N\[N+](=O)[O-])NCc1cnc(Cl)s1 | Folsomia candida | reproduction, OECD 232 | LUFA 2.2 soil | 28 days |  | EC20 | 0.04 mg/kg dry soil |
| Clc1cc(Cl)c(-c2cc(Cl)c(Cl)cc2Cl)cc1Cl | PXR (polar bear) | reporter gene, agonist, luciferase | COS-7 | 24 h | baseline: DMSO | fold induction | 3 ± 0.2 fold |
| CN1CC[C@]23c4c5ccc(O)c4O[C@H]2[C@@H](O[C@@H]2O[C@H](C(=O)O)[C@@H](O)[C@H](O)[C@H]2O)C=C[C@H]3[C@H]1C5 | MDCK II |  |  | 100.0 µg/mL, 100.0 min, DMEM buffer |  | Papp | 2.11 ± 0.08 ×10⁻⁶ cm/s |
| CC[C@H]1CN2CCc3c([nH]c4cccc(OC)c34)[C@@H]2C[C@@H]1/C(=C\OC)C(=O)OC | Cytochrome P450 2C9 (CYP2C9, Homo sapiens, UniProt P11712) | enzyme activity, inhibitor | human liver microsomes | added: diclofenac 4'-hydroxylation |  | IC50 | > 45 µM |
| Brc1c(Br)c(Br)c(Oc2c(Br)c(Br)c(Br)c(Br)c2Br)c(Br)c1Br | NR1I2 | reporter gene, agonist, luciferase | COS-7 | 24 h | baseline: DMSO | fold induction | 2.5 ± 0.2 fold |
| CN1CC[C@@]23CCCC[C@@H]2[C@@H]1Cc1ccc(O)cc13 |  |  | Wistar rat, both sexes, plasma | oral, 5 mg/kg DEM, DEM 2 h after pretreatment, added: QN 2.5 mg/kg single pretreatment |  | half-life | 5.98 ± 1.97 h |
| [123I]c1cncc(OC[C@@H]2CCN2)c1 |  | SPECT | human, low plasma nicotine, hippocampus | intravenous, dose not given | baseline: plasma | tissue/plasma ratio | 28.8 |
| C[C@H]1CNCCc2ccc(Cl)cc21 |  |  | Sprague-Dawley rat, male, plasma | subcutaneous, 3 mg/kg, 240 min |  | plasma concentration | 12.3 ± 0.48 ng/mL |
| O=C1OC(c2ccc(O)c(S(=O)(=O)O)c2)(c2ccc(O)c(S(=O)(=O)O)c2)c2c(Br)c(Br)c(Br)c(Br)c21 | SLCO1B3 (Homo sapiens, UniProt Q9NPD5) |  | human sandwich-cultured hepatocytes | 100 µM, 1 h pre-incubation then washout | baseline: vehicle | [3H]CCK-8 accumulation | 0.13 ± 0.01 fold |
| COc1ccc2c(c1)[C@]13CCCC[C@@H]1[C@H](C2)N(C)CC3 |  |  | Wistar rat, both sexes, plasma | oral, 5 mg/kg, 2 h after pretreatment, added: single TCE 100 mg/kg |  | MRT(0-inf) | 4.1 ± 0.49 h |
| CSCC[C@@H]1NC(=O)[C@H](CC(=O)O)NC(=O)CNC(=O)[C@H](CCCNC(=N)N)NC(=O)[C@H](C)NC(=O)[C@H](CCC(=O)O)NC(=O)[C@H](CCCNC(=N)N)NC(=O)[C@@H]2CSSC[C@@H]3NC(=O)[C@H](CO)NC(=O)[C@H]([C@@H](C)O)NC(=O)[C@@H]4CCCN4C(=O)[C@H](C)NC(=O)[C@H](Cc4c[nH]c5ccccc45)NC(=O)[C@H](CC(=O)O)NC(=O)CNC(=O)[C@H](CCCNC(=N)N)NC(=O)CNC(=O)[C@H](CCC(N)=O)NC(=O)[C@@H]4CCCN4C(=O)[C@@H](NC(=O)CNC(=O)C(C)F)CSSC[C@H](NC(=O)CNC(=O)[C@H](C)NC(=O)[C@H](CC(C)C)NC(=O)[C@H](CSSC[C@@H](C(=O)NCC(N)=O)NC(=O)[C@H]([C@@H](C)O)NC(=O)[C@H](CCCNC(=N)N)NC(=O)[C@@H]4CCCN4C1=O)NC(=O)[C@H](CC(=O)O)NC(=O)[C@H](CO)NC(=O)[C@H](CC(=O)O)NC(=O)[C@H](CCC(N)=O)NC(=O)[C@H](CO)NC3=O)C(=O)N[C@@H](C(C)C)C(=O)N2 (some centres unmarked) [fluorine-18 labelled] |  |  | nude mice U-87 MG xenograft, pancreas | intravenous, 2.5 h |  | tissue uptake | 0.21 ± 0.08 %ID/g |
| Cc1ncc2n1-c1ccc(Cl)cc1C(c1ccccc1F)=NC2 |  |  | human CYP3A5*3/*7, serum | added: ketoconazole 200 mg |  | terminal half-life | 9.78 h |
| OCc1ncc2n1-c1ccc(Cl)cc1C(c1ccccc1F)=NC2 | Cytochrome P450 3A4 (CYP3A4, Homo sapiens, UniProt P08684) |  | human | 75 mg once daily, day 10, added: midazolam 7.5 mg | baseline: compound over midazolam | AUC ratio | 0.31 |
| N[C@]1(c2ccccc2Cl)CC[C@H](O)CC1=O |  |  | female CD-1 mice, plasma | intraperitoneal, 5 mg/kg |  | dose-normalized Cmax | 128 ± 9.1 ng/mL per mg/kg |
| Clc1ccc(-c2ccc(Cl)c(Cl)c2Cl)cc1 | PXR (polar bear) | reporter gene, agonist, luciferase | COS-7 | 24 h | baseline: DMSO | fold induction | 0.8 ± 0.1 fold |
| N[C@]1(c2ccccc2Cl)CCC[C@@H](O)C1=O |  |  | male CD-1 mice, plasma | intraperitoneal, 5 mg/kg |  | dose-normalized Cmax | 104 ± 23.9 ng/mL per mg/kg |
| NC12CC3CC(CC(C3)C1)C2 | MDCK | microscopy, altered cell morphology |  |  |  | minimum cytotoxic concentration | > 500 µM |
| CC[C@@]1(O)C(=O)OCc2c1cc1n(c2=O)Cc2cc3c(CN(C)C)c(O)ccc3nc2-1 | ABCG2 (Homo sapiens, UniProt Q9UNQ0) |  | 3D human intestinal tissue | 120 (unit not given), B-to-A over A-to-B, added: Ko143 |  | efflux ratio | 3.6 |
| C[C@H](Cn1cnc2c(N)ncnc21)OCP(=O)(O)O | hCMEC/D3 |  |  | 5 µM, 1 h, in antiretroviral combination |  | intracellular concentration | 0.32 ± 0.07 ng/mL |
| Clc1ccc(Cl)c(-c2c(Cl)c(Cl)cc(Cl)c2Cl)c1 | NR1I2 | reporter gene, agonist, luciferase | COS-7 | 24 h | baseline: DMSO | fold induction | 7.1 ± 1 fold |
| CN1COCN(Cc2cnc(Cl)s2)/C1=N\[N+](=O)[O-] | Folsomia candida | survival, OECD 232 | LUFA 2.2 soil | 28 days |  | LC50 | 0.32 mg/kg dry soil |
| C[C@@H]1CCO[C@H]2Cn3cc(C(=O)NCc4ccc(F)cc4F)c(=O)c(O)c3C(=O)N12 | hCMEC/D3 |  |  | 5 µM, 1 h, 37 °C |  | intracellular accumulation | 74.8 ± 9.84 pmol/mg protein |
| O=[N+]([O-])NC1=NCCN1Cc1ccc(Cl)nc1 | Folsomia candida | reproduction, OECD 232 | LUFA 2.2 soil | 28 days |  | EC10 | 0.1 mg/kg dry soil |
| C=C1C[C@@H]2[C@H](CC[C@]3(C)C(=O)CC[C@@H]23)[C@@]2(C)C=CC(=O)C=C12 |  | LC-MS/MS | postmenopausal breast cancer women, plasma | oral, 25 mg/day, 2 h, AKR7A2 A142T homozygous wild-type |  | median plasma concentration | 7.7 ng/mL |

Excerpt of the above:
| Compound | target or system | test | test system | conditions | how to read | quantity | result |
| --- | --- | --- | --- | --- | --- | --- | --- |
| CN1CC[C@@]23CCCC[C@@H]2[C@@H]1Cc1ccc(O)cc13 |  |  | Wistar rat, both sexes, plasma | oral, 5 mg/kg DEM, DEM 2 h after pretreatment, added: QN 2.5 mg/kg single pretreatment |  | half-life | 5.98 ± 1.97 h |
| C=C1C[C@@H]2[C@H](CC[C@]3(C)C(=O)CC[C@@H]23)[C@@]2(C)C=CC(=O)C=C12 |  | LC-MS/MS | postmenopausal breast cancer women, plasma | oral, 25 mg/day, 2 h, AKR7A2 A142T homozygous wild-type |  | median plasma concentration | 7.7 ng/mL |
